Experimental data gathered from unrelated publications.
Each numbered part is a random draw from the data of one study; scales do not carry over between parts.
Sequence of UniProt P11802 (whole entry, looked up): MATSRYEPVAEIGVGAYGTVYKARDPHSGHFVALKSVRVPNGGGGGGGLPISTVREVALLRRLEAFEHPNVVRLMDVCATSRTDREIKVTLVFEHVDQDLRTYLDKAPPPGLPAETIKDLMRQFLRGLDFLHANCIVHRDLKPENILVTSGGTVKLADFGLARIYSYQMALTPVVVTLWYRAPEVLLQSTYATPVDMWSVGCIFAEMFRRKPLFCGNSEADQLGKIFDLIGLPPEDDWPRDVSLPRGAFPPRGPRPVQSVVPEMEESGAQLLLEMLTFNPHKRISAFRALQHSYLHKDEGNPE
Sequence of UniProt P54764 (whole entry, looked up): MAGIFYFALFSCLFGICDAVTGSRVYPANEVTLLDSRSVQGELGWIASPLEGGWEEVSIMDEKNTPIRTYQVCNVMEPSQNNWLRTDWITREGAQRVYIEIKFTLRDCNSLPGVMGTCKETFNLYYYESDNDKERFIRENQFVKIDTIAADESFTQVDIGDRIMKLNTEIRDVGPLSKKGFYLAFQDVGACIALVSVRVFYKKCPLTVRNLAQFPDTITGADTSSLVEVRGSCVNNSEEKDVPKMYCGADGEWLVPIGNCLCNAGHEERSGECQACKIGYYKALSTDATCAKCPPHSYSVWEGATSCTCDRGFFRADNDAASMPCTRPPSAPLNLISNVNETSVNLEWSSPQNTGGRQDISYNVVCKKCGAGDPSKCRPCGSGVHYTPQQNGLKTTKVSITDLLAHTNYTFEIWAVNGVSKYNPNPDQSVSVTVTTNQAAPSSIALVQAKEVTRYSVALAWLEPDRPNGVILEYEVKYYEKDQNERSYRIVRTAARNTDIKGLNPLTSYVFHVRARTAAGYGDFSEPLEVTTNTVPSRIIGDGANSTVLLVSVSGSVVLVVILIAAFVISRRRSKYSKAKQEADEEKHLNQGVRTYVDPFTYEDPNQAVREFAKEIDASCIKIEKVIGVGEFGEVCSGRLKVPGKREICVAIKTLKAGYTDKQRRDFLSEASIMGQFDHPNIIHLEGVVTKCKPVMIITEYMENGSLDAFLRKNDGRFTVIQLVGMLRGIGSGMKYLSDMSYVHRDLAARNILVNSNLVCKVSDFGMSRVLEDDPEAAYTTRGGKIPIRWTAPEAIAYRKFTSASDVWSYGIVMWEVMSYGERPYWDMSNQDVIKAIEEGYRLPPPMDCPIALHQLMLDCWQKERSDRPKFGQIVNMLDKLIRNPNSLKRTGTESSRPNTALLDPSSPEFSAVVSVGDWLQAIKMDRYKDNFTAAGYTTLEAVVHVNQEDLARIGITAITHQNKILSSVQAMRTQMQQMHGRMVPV
Sequence of UniProt O14730 (whole entry, looked up): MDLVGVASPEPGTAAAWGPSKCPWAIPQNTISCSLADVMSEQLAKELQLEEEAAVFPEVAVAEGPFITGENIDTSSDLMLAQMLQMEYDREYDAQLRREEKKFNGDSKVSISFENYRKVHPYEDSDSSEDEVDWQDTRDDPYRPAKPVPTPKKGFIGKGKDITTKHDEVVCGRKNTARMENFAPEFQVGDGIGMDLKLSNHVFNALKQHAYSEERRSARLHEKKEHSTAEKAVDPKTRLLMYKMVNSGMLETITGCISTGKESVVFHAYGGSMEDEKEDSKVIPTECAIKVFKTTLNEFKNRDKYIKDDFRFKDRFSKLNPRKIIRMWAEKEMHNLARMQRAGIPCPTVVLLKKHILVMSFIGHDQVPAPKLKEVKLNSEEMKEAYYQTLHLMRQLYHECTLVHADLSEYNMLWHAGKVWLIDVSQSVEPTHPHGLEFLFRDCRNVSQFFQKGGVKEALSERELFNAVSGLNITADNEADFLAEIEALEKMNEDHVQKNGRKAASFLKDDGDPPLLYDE
Sequence of UniProt O75716 (whole entry, looked up): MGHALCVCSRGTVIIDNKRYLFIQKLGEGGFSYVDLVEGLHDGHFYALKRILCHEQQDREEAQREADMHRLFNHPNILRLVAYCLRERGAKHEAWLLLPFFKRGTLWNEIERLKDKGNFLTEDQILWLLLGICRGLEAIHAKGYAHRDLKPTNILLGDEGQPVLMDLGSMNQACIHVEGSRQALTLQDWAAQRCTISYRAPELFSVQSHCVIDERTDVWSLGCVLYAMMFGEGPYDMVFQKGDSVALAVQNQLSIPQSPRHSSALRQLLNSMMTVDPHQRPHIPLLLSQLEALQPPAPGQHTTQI
Sequence of UniProt Q8IU85 (whole entry, looked up): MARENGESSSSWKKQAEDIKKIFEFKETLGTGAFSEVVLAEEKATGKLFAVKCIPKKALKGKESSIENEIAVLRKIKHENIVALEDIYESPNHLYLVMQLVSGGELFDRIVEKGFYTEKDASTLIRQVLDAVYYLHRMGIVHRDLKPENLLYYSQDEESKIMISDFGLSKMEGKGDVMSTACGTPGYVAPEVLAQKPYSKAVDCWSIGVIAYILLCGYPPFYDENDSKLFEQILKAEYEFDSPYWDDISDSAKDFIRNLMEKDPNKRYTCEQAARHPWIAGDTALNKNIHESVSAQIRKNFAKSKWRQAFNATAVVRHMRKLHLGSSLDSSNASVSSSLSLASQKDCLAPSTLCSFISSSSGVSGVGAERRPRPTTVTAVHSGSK
Sequence of UniProt P51955 (whole entry, looked up): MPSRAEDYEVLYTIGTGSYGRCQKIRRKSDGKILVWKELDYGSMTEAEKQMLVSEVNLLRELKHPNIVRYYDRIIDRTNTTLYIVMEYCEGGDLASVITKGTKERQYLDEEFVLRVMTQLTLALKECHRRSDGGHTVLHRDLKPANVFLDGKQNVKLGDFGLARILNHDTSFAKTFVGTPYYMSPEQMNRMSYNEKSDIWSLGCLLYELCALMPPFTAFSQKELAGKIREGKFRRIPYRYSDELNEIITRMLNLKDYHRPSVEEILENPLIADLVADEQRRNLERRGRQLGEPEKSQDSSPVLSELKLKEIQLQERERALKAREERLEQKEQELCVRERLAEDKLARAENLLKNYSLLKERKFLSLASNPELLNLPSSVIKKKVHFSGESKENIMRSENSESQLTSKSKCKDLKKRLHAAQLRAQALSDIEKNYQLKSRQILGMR
Sequence of UniProt P36897 (whole entry, looked up): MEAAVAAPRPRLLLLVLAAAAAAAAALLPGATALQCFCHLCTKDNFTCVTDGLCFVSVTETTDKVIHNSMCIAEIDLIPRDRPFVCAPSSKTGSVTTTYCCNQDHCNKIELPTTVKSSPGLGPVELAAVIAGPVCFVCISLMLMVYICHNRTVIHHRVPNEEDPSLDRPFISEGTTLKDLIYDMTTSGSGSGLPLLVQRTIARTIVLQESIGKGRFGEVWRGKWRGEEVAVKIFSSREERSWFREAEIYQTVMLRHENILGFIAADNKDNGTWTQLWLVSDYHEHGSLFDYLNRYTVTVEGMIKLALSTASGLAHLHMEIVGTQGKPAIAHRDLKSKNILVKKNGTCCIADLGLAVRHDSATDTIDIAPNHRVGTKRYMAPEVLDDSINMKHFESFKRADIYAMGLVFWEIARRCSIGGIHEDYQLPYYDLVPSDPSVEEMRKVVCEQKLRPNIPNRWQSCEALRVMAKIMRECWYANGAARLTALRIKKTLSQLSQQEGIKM
Sequence of UniProt Q14164 (whole entry, looked up): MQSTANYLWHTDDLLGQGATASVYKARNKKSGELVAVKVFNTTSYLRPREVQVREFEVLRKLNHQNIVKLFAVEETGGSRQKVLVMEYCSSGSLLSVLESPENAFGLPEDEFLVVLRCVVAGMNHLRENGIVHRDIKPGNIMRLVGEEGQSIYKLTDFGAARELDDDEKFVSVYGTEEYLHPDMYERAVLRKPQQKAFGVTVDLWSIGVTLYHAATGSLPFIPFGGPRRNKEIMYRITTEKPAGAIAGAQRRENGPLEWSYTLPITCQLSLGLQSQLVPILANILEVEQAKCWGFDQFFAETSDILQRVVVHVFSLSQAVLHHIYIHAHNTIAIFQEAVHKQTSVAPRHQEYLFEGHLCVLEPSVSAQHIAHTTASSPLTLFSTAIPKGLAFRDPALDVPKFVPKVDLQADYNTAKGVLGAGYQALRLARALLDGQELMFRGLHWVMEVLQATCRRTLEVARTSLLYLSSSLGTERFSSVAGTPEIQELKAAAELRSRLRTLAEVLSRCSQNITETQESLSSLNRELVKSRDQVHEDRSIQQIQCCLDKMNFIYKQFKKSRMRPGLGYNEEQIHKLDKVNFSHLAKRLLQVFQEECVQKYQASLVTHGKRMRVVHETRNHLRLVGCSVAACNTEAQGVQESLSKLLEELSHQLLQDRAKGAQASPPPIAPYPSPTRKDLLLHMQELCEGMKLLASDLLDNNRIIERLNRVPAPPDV
Sequence of UniProt P0C1S8 (whole entry, looked up): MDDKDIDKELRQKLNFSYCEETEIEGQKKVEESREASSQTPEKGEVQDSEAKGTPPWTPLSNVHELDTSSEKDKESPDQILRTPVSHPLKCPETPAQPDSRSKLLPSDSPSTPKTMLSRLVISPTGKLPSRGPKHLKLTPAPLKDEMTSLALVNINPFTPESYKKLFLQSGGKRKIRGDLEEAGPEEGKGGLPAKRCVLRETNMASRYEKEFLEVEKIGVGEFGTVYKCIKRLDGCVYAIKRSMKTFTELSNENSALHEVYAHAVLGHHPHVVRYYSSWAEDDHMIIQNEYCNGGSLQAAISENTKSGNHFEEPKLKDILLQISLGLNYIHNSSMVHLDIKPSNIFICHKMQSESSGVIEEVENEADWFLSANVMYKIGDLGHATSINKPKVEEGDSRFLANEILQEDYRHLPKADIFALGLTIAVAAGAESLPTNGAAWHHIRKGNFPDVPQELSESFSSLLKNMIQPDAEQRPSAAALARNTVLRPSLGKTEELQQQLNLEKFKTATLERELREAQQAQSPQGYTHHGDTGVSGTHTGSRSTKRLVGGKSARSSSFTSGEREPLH

Block 1 — dose: dose not given; relative to: vehicle
SMILES: CC(=O)N[C@@H](Cc1c[nH]c2ccccc12)C(=O)N[C@@H](CCC(=O)C=[N+]=[N-])C(=O)OC(C)C
The fold change was 0.363 (item: succinate; mouse, EL4 tumour-bearing, EL4 tumour).
item: anserine; mouse, EL4 tumour-bearing, EL4 tumour — fold change: 3.64.
item: methylsuccinate; mouse, EL4 tumour-bearing, EL4 tumour — fold change: 5.99.
item: 5-methylcytidine; mouse, EL4 tumour-bearing, EL4 tumour — fold change: 0.467.
For item: 4-hydroxyphenylpyruvate; mouse, EL4 tumour-bearing, EL4 tumour: fold change read 2.59.
item: UDP-galactose; mouse, EL4 tumour-bearing, EL4 tumour — fold change: 0.398.
It gave 0.449 for fold change (item: reduced glutathione; mouse, EL4 tumour, tumour).
The fold change was 0.492 (item: argininosuccinate; mouse, EL4 tumour-bearing, EL4 tumour).
For item: ribose; mouse, EL4 tumour-bearing, EL4 tumour: fold change read 3.23.
For item: adenine; mouse, EL4 tumour-bearing, EL4 tumour: fold change read 0.174.

Block 2 — SMILES: c1ccc(N2CCN(Cc3nc4ccccc4[nH]3)CC2)nc1; method: competition with immobilised ligand; concentration: 1 µM
Inhibitor of nuclear factor kappa-B kinase subunit epsilon (IKBKE, Homo sapiens, UniProt Q14164); binding — remaining binding: 100%.
The remaining binding was 100% (Serine/threonine-protein kinase RIO3 (RIOK3, Homo sapiens, UniProt O14730); binding).
It gave 100% for remaining binding (Insulin receptor (INSR, Homo sapiens, UniProt P06213); cell-free assay).
Cyclin-dependent kinase 4, with cyclin D1 (CDK4, Homo sapiens, UniProt P11802); binding — remaining binding: 100%.
Serine/threonine-protein kinase Nek2 (NEK2, Homo sapiens, UniProt P51955); binding — remaining binding: 100%.
Non-receptor tyrosine-protein kinase TNK1 (TNK1, Homo sapiens, UniProt Q13470); binding — remaining binding: 59%.
The remaining binding was 96% (Calcium/calmodulin-dependent protein kinase type 1D (CAMK1D, Homo sapiens, UniProt Q8IU85); cell-free assay).
G protein-coupled receptor kinase 3 (GRK3, Homo sapiens, UniProt P35626); binding — remaining binding: 67%.
The remaining binding was 97% (Protein kinase C iota type (PRKCI, Homo sapiens, UniProt P41743); cell-free assay).
SRSF protein kinase 2 (SRPK2, Homo sapiens, UniProt P78362); binding — remaining binding: 100%.
The remaining binding was 97% (TGF-beta receptor type-1 (TGFBR1, Homo sapiens, UniProt P36897); cell-free assay).
For Wee1-like protein kinase 2 (WEE2, Homo sapiens, UniProt P0C1S8); binding: remaining binding read 100%.
For Transient receptor potential cation channel subfamily M member 6 (TRPM6, Homo sapiens, UniProt Q9BX84); cell-free assay: remaining binding read 100%.
It gave 100% for remaining binding (Tyrosine-protein kinase ABL1, phosphorylated (ABL1, Homo sapiens, UniProt P00519, M351T); binding).
It gave 100% for remaining binding (Mitogen-activated protein kinase kinase kinase kinase 1 (MAP4K1, Homo sapiens, UniProt Q92918); binding).
Phosphatidylinositol 4,5-bisphosphate 3-kinase catalytic subunit alpha isoform (PIK3CA, Homo sapiens, UniProt P42336, M1043I); cell-free assay — remaining binding: 87%.
The remaining binding was 100% (LIM domain kinase 2 (LIMK2, Homo sapiens, UniProt P53671); binding).

Block 3 — Structure (SMILES): CCC(=O)Nc1ccc2ncnc(Nc3cccc(Br)c3)c2c1; effect on: enzyme activity; mode: inhibitor; concentration: 0.5 µM; relative to: control
The remaining activity was 126% (Tyrosine-protein kinase receptor UFO (AXL, Homo sapiens, UniProt P30530)).
It gave 82.8% for remaining activity (Testis-specific serine/threonine-protein kinase 2 (TSSK2, Homo sapiens, UniProt Q96PF2)).
For Tyrosine-protein kinase ABL1 (ABL1, Homo sapiens, UniProt P00519): remaining activity read 98.9%.
It gave 97% for remaining activity (Homeodomain-interacting protein kinase 2 (HIPK2, Homo sapiens, UniProt Q9H2X6)).
For Phosphorylase b kinase gamma catalytic chain, skeletal muscle/heart isoform (PHKG1, Homo sapiens, UniProt Q16816): remaining activity read 92.4%.
The remaining activity was 88.7% (Serine/threonine-protein kinase 17A (STK17A, Homo sapiens, UniProt Q9UEE5)).
The remaining activity was 99.3% (Serine/threonine-protein kinase WNK3 (WNK3, Homo sapiens, UniProt Q9BYP7)).
The remaining activity was 93.3% (Ephrin type-B receptor 1 (EPHB1, Homo sapiens, UniProt P54762)).
It gave 95.5% for remaining activity (cAMP-dependent protein kinase catalytic subunit gamma (PRKACG, Homo sapiens, UniProt P22612)).
The remaining activity was 107% (3-phosphoinositide-dependent protein kinase 1 (PDPK1, Homo sapiens, UniProt O15530)).
The remaining activity was 99.6% (Serine/threonine-protein kinase 16 (STK16, Homo sapiens, UniProt O75716)).
Dual specificity tyrosine-phosphorylation-regulated kinase 3 (DYRK3, Homo sapiens, UniProt O43781) — remaining activity: 92.3%.
It gave 90% for remaining activity (Ribosomal protein S6 kinase alpha-5 (RPS6KA5, Homo sapiens, UniProt O75582)).
The remaining activity was 90.4% (Cyclin-dependent kinase 4, with cyclin D3 (CDK4, Homo sapiens, UniProt P11802)).
Tyrosine-protein kinase Srms (SRMS, Homo sapiens, UniProt Q9H3Y6) — remaining activity: 99.4%.
It gave 91.1% for remaining activity (Mitogen-activated protein kinase kinase kinase kinase 4 (MAP4K4, Homo sapiens, UniProt O95819)).
The remaining activity was 90.6% (Ribosomal protein S6 kinase alpha-6 (RPS6KA6, Homo sapiens, UniProt Q9UK32)).
It gave 90.2% for remaining activity (MAP kinase-activated protein kinase 3 (MAPKAPK3, Homo sapiens, UniProt Q16644)).
The remaining activity was 105% (Calcium/calmodulin-dependent protein kinase type II subunit beta (CAMK2B, Homo sapiens, UniProt Q13554)).
Ephrin type-A receptor 4 (EPHA4, Homo sapiens, UniProt P54764) — remaining activity: 94.3%.
It gave 90.7% for remaining activity (Tyrosine-protein kinase Blk (BLK, Homo sapiens, UniProt P51451)).
Cyclin-dependent kinase 6, with cyclin D3 (CDK6, Homo sapiens, UniProt Q00534) — remaining activity: 94.8%.
For Ephrin type-B receptor 4 (EPHB4, Homo sapiens, UniProt P54760): remaining activity read 93.4%.
The remaining activity was 89.5% (Cyclin-dependent kinase 1, with cyclin B (CDK1, Homo sapiens, UniProt P06493)).
Homeodomain-interacting protein kinase 4 (HIPK4, Homo sapiens, UniProt Q8NE63) — remaining activity: 87.8%.

Block 4 — medium: 1,9-decadiene/PBS; pH: 7.4
`CC(C)C[C@@H]1NC(=O)[C@H](C(C)C)NC(=O)[C@H](Cc2cscn2)NC(=O)[C@@H](CC(C)C)NC(=O)[C@@H](CCC(=O)N2CCCC2)NC(=O)[C@H](CC(C)C)NC(=O)[C@@H](CC(C)C)NC1=O` has a logD of -0.525.
`CC(C)C[C@@H]1NC(=O)[C@H](CC(C)C)NC(=O)[C@H](CC(C)C)NC(=O)[C@H](CC(C)C)NC(=O)[C@@H](CCC(=O)N2CCCC2)NC(=O)[C@H](C)NC(=O)[C@H](C)NC1=O` has a logD of -1.62.
The logD of `CC(C)C[C@@H]1NC(=O)[C@H](CC(C)C)NC(=O)[C@@H](CC(C)C)NC(=O)[C@H](C)NC(=O)[C@@H](CCC(=O)N2CCCC2)NC(=O)[C@H](C)NC(=O)[C@H](C)NC1=O` is reported as -3.7.
The logD of `CC(C)C[C@@H]1NC(=O)[C@H](CC(C)C)NC(=O)[C@@H](C(C)C)NC(=O)[C@H](CC(C)C)NC(=O)[C@@H](Cc2cscn2)NC(=O)[C@H](C)NC(=O)[C@H](CCC(=O)N2CCCC2)NC1=O` is reported as -2.21.
`CC(C)C[C@@H]1NC(=O)[C@H](C)NC(=O)[C@@H](CC(C)C)NC(=O)[C@@H](CC(C)C)NC(=O)[C@@H](CCC(=O)N2CCCC2)NC(=O)[C@H](CC(C)C)NC(=O)[C@@H](CC(C)C)NC1=O` gave a logD of -0.0939.
For `CC(C)C[C@@H]1NC(=O)[C@H](C)NC(=O)[C@@H](CC(C)C)NC(=O)[C@H](C(C)C)NC(=O)[C@H](CC(C)C)NC(=O)[C@@H](CC(C)C)NC(=O)[C@H](CC(C)C)NC1=O`, the logD was 1.05.
`CC(C)C[C@@H]1NC(=O)[C@H](C)NC(=O)[C@H](C)NC(=O)[C@H](C)NC(=O)[C@H](C(C)C)NC(=O)[C@H](CC(C)C)NC(=O)[C@@H](CC(C)C)NC1=O` has a logD of -2.27.
`CC(C)C[C@@H]1NC(=O)[C@H](CC(C)C)NC(=O)[C@@H](CC(C)C)NC(=O)[C@H](CC(C)C)NC(=O)[C@H](C(C)C)NC(=O)[C@H](Cc2cscn2)NC(=O)[C@H](C)NC1=O` gave a logD of 0.0654.
`CC(C)C[C@@H]1NC(=O)[C@H](C)NC(=O)[C@H](CCC(=O)N2CCCC2)NC(=O)[C@H](C)NC(=O)[C@H](CC(C)C)NC(=O)[C@H](CC(C)C)NC(=O)[C@@H](C(C)C)NC1=O` gave a logD of -2.71.

For quick reference, copied from above (block 1):
For item: 4-hydroxyphenylpyruvate; mouse, EL4 tumour-bearing, EL4 tumour: fold change read 2.59.
item: UDP-galactose; mouse, EL4 tumour-bearing, EL4 tumour — fold change: 0.398.
It gave 0.449 for fold change (item: reduced glutathione; mouse, EL4 tumour, tumour).
The fold change was 0.492 (item: argininosuccinate; mouse, EL4 tumour-bearing, EL4 tumour).
For item: ribose; mouse, EL4 tumour-bearing, EL4 tumour: fold change read 3.23.
For item: adenine; mouse, EL4 tumour-bearing, EL4 tumour: fold change read 0.174.
